Experimental data of several laboratories.
Numbered parts are unrelated; each lists some results of a single study. Several values in a cell are separate wells, animals, samples, runs or records.
Sequence of UniProt Q32MK0 (whole entry, looked up): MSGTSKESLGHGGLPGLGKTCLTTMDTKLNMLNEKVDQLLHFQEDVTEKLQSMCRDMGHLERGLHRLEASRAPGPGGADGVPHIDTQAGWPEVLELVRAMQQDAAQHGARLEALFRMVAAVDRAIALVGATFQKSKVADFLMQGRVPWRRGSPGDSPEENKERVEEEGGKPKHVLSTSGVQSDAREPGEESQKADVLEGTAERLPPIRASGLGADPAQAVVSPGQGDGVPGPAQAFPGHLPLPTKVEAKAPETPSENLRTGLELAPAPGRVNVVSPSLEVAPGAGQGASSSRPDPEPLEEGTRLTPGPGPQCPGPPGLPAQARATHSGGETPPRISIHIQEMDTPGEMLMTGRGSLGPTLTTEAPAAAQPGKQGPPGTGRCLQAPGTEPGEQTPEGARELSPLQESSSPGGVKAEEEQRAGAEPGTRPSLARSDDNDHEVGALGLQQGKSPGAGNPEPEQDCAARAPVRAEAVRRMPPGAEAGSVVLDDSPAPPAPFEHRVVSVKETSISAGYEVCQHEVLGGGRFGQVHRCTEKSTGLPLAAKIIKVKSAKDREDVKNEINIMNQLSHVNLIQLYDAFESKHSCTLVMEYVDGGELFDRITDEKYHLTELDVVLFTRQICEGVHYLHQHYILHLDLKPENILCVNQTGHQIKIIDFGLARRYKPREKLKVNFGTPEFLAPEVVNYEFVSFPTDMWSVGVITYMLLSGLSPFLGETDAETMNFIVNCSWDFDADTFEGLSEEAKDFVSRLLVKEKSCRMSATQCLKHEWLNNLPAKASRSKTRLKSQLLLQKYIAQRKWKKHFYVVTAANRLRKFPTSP
Sequence of UniProt P29323 (whole entry, looked up): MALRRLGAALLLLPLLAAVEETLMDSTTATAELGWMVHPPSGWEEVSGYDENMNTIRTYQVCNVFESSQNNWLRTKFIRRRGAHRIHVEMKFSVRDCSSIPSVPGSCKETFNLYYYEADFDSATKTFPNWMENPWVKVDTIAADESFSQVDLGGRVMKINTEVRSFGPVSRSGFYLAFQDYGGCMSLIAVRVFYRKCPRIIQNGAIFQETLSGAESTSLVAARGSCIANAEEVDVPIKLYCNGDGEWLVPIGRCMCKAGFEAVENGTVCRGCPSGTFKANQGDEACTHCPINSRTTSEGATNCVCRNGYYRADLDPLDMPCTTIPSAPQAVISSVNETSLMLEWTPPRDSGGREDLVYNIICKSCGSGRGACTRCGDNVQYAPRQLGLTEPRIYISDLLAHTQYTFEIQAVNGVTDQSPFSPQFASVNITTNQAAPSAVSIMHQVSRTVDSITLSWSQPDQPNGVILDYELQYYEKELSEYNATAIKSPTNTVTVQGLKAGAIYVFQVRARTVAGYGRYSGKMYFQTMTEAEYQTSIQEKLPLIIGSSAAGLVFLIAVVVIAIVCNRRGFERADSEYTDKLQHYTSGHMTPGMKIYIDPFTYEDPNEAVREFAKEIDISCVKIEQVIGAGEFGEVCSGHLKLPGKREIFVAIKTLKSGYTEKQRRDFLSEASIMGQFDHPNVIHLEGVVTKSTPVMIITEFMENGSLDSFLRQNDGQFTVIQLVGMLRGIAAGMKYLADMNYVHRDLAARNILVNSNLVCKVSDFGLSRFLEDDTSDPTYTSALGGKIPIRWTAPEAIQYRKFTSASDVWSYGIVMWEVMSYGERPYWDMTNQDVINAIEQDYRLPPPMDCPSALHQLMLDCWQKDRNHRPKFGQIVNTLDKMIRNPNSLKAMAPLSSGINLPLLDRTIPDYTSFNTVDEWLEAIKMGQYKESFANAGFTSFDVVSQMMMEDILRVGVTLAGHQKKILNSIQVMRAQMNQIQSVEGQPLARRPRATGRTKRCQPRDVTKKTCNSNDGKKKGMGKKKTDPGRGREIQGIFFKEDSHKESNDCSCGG
Sequence of UniProt Q9HBH9 (whole entry, looked up): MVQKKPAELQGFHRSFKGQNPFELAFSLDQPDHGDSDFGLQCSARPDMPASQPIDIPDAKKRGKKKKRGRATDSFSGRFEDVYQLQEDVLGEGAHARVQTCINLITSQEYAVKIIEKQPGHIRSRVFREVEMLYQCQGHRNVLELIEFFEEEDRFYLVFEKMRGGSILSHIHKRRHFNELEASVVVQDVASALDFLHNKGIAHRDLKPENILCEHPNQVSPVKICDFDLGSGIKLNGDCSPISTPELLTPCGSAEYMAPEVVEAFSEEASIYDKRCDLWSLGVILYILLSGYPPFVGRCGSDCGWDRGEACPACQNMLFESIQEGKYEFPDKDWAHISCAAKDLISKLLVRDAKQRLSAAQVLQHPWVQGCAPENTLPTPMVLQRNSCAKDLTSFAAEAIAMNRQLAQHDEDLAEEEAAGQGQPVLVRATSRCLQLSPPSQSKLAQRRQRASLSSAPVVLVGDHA
Sequence of UniProt Q13237 (whole entry, looked up): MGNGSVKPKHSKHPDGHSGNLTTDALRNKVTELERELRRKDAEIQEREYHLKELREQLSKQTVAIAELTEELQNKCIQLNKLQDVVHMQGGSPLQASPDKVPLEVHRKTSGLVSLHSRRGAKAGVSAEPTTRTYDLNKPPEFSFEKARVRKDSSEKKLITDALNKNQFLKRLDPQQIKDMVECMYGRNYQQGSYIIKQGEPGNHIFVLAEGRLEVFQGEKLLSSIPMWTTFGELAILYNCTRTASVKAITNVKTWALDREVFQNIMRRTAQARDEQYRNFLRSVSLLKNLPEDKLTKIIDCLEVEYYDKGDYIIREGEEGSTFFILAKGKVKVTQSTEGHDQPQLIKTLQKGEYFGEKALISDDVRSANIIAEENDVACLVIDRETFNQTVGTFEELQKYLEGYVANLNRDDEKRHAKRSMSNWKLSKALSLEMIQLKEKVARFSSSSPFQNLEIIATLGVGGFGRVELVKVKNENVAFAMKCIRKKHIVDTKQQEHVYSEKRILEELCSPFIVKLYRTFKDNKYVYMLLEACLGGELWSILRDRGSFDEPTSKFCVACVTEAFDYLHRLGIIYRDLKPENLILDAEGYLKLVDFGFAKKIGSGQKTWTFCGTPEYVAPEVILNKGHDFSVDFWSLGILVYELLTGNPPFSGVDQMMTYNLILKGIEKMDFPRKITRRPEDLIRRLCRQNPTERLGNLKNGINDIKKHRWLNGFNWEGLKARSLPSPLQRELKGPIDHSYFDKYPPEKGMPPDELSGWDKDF
Sequence of UniProt P19525 (whole entry, looked up): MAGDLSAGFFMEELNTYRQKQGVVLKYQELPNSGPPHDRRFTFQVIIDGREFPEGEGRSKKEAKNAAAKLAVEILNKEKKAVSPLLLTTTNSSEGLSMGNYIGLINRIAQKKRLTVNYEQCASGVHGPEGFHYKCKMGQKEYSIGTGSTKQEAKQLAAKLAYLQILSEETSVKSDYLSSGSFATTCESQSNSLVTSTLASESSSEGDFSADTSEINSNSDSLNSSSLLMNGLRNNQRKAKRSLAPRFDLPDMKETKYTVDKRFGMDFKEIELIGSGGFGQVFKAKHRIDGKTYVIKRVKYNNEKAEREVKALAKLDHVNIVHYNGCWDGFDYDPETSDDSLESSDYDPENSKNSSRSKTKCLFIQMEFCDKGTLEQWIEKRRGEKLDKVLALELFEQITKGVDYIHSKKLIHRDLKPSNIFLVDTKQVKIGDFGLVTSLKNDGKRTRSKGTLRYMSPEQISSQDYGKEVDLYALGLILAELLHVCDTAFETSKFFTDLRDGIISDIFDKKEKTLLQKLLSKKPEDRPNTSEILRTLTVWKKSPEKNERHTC
Sequence of UniProt P51451 (whole entry, looked up): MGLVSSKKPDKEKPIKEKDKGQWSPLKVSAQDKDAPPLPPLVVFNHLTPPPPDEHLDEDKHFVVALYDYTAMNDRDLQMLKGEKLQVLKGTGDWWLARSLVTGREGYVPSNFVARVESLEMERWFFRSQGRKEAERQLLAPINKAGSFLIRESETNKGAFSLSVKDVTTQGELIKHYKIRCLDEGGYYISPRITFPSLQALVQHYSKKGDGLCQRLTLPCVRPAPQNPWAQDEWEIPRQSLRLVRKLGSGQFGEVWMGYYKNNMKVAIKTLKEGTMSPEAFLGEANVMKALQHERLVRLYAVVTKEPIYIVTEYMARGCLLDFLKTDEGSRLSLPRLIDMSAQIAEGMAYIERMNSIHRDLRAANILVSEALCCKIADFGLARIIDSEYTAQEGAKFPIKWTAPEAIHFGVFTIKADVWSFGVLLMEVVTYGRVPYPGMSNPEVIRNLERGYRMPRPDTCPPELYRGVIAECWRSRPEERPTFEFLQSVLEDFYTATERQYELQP

Set 1
Cell line: sample G normal colon organoid
Technique: CellTiter-Glo
Concentration: 1 µM
Time: 4 days
Reference: DMSO
Compound	viability [%]
C[C@H](c1ccc(F)cc1)N(Cc1ccc(Cl)c(C(=O)O)c1)C(=O)c1cnc2ccccc2c1	112
C[C@H](c1ccnc(Nc2nc3ccc(-c4cc(N(C)C)ncn4)cc3[nH]2)c1)N1CCN(C(=O)CC(F)(F)F)CC1	91.9
CN(C)C(=O)Cn1cc(-c2nc(C3(c4ccc(-c5cnc(N)nc5)cc4)CC3)no2)cn1	106
CCCCN(Cc1ccccc1)C(=O)c1ccc(S(=O)(=O)Nc2ccccc2)cc1	94.8
Cc1c(NC(=O)c2cc(C(N)=O)nc3cc(F)ccc23)c(C(F)(F)F)nn1Cc1ccc(C#N)cc1	21.5
NS(=O)(=O)c1cc(NC(=O)Cc2ccccc2)ccc1Oc1cccc(Cl)c1	113
C[C@@]1(Cc2ccc(C#N)cc2)C(=O)N(c2cc(Cl)cc(Cl)c2)c2ncc(C(=O)NC3(c4nc(C5CCC5)no4)CC3)n21	128
O=C(Nc1cccnn1)N1CCC(=Cc2cccc(Oc3ccc(C(F)(F)F)cn3)c2)CC1	96.4
CN(C)c1ncnc(-c2ccc3nc(Nc4cc(CN5CCN(C(=O)CC(F)(F)F)CC5)ccn4)[nH]c3c2)c1Cl	93.5
C[C@H](c1ccc(F)cc1)N(Cc1cccc(C(=O)O)c1)C(=O)c1cnc2ccccc2c1	114
CN(c1ccnc(CNc2nc(Nc3ccc4c(c3)CC(=O)N4)ncc2C(F)(F)F)n1)S(C)(=O)=O	108
NS(=O)(=O)c1cc(NC(=O)C2(c3ccccc3Cl)CC2)ccc1Oc1cccc(Cl)c1	122
C[C@H](NC(=O)c1cnc2n1[C@](C)(Cc1ccc(C#N)cc1)C(=O)N2c1cc(Cl)c(F)c(Cl)c1)C(=O)NC1(c2ccccn2)CC1	122

Set 2
Target: Serine/threonine-protein kinase Nek4 (NEK4, Homo sapiens, UniProt P51957)
Sequence of UniProt P51957 (whole entry, looked up): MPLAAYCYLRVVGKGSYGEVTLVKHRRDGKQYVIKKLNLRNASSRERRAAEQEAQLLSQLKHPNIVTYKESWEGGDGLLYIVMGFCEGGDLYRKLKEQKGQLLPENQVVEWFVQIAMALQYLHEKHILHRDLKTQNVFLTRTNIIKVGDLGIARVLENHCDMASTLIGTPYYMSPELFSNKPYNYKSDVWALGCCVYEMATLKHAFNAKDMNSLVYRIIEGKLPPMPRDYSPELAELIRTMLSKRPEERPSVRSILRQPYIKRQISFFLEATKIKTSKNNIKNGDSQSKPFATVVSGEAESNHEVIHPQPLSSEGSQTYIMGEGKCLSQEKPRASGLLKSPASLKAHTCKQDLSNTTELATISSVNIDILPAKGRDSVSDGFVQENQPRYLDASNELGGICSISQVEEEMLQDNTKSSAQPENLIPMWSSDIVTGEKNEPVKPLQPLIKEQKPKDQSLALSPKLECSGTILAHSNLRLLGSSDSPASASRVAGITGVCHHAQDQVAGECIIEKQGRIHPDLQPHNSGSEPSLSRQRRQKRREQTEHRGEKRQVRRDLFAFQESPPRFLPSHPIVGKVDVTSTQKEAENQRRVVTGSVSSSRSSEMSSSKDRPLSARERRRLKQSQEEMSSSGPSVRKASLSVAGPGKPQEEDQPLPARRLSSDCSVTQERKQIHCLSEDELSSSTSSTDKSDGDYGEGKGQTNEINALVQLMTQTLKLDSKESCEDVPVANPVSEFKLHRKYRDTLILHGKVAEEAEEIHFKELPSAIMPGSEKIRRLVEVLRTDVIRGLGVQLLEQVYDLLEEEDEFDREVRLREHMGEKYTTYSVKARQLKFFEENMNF
Read-out: enzyme activity
Action: inhibitor
Concentration: 0.5 µM
Reference: control
Structure (SMILES)	remaining activity [%]
c1ccc(-c2[nH]ncc2-c2ccnc3ccccc23)nc1	95.8
O=C1C(Cl)=C(N2C(=O)CCC2=O)C(=O)c2ccccc21	99.6
O=C(Nc1cccc(Nc2nccc(Nc3cccc(C(F)(F)F)c3)n2)c1)C1CC1	83.4
Ic1cccc(CSc2nnc(-c3ccncc3)o2)c1	93.7
CCN(CC)CCNC(=O)c1c(C)[nH]c(/C=C2\C(=O)Nc3ccc(Cl)cc32)c1C	97
C[C@@H]1CCN(C(=O)CC#N)C[C@@H]1N(C)c1ncnc2[nH]ccc12	96
N#Cc1c(NC(=O)c2cccc3ccccc23)sc2c1CCCC2	94.6
Cc1cn(-c2cc(NC(=O)c3ccc(C)c(Nc4nccc(-c5cccnc5)n4)c3)cc(C(F)(F)F)c2)cn1	102
CN([C@@H](Cc1ccc(OS(=O)(=O)c2cccc3cnccc23)cc1)C(=O)N1CCN(c2ccccc2)CC1)S(=O)(=O)c1cccc2cnccc12	99.5
CCN(CC)C(=O)c1ccc(Nc2nc(OCC3CCCCC3)c3[nH]cnc3n2)cc1	87.9
COc1cc2ncnc(Nc3cccc(Cl)c3)c2cc1OC	87.5
N#C/C(=C\c1ccc(O)c(O)c1)C(=O)NCc1ccccc1	98.6
CCOc1nc(NC(=O)Cc2cc(OC)ccc2OC)cc(N)c1C#N	93.2
Nc1cccc(-c2cc3c(Oc4cccc(O)c4)ncnc3[nH]2)c1	91.4
CCN(CC)CCNC(=O)c1c(C)[nH]c(/C=C2\C(=O)Nc3ccc(F)cc32)c1C	94.1
c1ccc(-c2cnc(Nc3ccc(OCCN4CCCC4)cc3)s2)cc1	96.1
Cc1cc2ncc(-c3ccccc3)nc2cc1C	99.3
Cc1nc2cc3nc(-c4cccs4)cnc3cc2n1C	95.2
O=C(NC(NC(=S)Nc1ccc(F)c([N+](=O)[O-])c1)C(Cl)(Cl)Cl)C(c1ccccc1)c1ccccc1 (centres unmarked)	87.8
O=c1cc(-c2cccc3c2Sc2ccccc2S3)oc(N2CCOCC2)c1	90
COc1cc2ncnc(Nc3ccc(O)c(Br)c3)c2cc1OC	93.1
CN(C)C[C@H]1CCn2c(c(C3=C(c4cn(C)c5ccccc45)C(=O)NC3=O)c3ccccc32)C1	96.7
Cn1nc2c3c(cccc31)C(=O)c1ccccc1-2	89.8
O=C1c2ccccc2-c2n[nH]c3cccc1c23	89.8
COc1cc2c(cc1OC)-c1[nH]nc(Nc3cccc(F)c3)c1C2	101

Set 3
Structure (SMILES): CN1CCN(C(=O)c2ccc(NC(=O)Nc3ccc(N(C)c4ccnc(Nc5ccc(CS(C)(=O)=O)cc5)n4)cc3)cc2)CC1
Concentration: 1 µM
target	technique	setting	reference	remaining binding [%]
Phosphatidylinositol 4,5-bisphosphate 3-kinase catalytic subunit alpha isoform (PIK3CA, Homo sapiens, UniProt P42336, E545K)	competitive binding panel		vehicle	97
Myosin light chain kinase (MYLK3, Homo sapiens, UniProt Q32MK0)	competitive binding	MLCK		86
cGMP-dependent protein kinase 2 (PRKG2, Homo sapiens, UniProt Q13237)	competitive binding panel		vehicle	100
Wee1-like protein kinase (WEE1, Homo sapiens, UniProt P30291)	competitive binding panel		vehicle	100
Serine/threonine-protein kinase PLK1 (PLK1, Homo sapiens, UniProt P53350)	competitive binding panel		vehicle	100
Ephrin type-B receptor 2 (EPHB2, Homo sapiens, UniProt P29323)	competitive binding panel		vehicle	76
Tyrosine-protein kinase Blk (BLK, Homo sapiens, UniProt P51451)	competitive binding panel		vehicle	87
TGF-beta receptor type-1 (TGFBR1, Homo sapiens, UniProt P36897)	competitive binding panel		vehicle	88
MAP kinase-interacting serine/threonine-protein kinase 2 (MKNK2, Homo sapiens, UniProt Q9HBH9)	competitive binding panel		vehicle	4.2
Calcium/calmodulin-dependent protein kinase type IV (CAMK4, Homo sapiens, UniProt Q16566)	competitive binding panel		vehicle	100
Serine/threonine-protein kinase MRCK alpha (CDC42BPA, Homo sapiens, UniProt Q5VT25)	competitive binding	MRCKA		89
Interferon-induced, double-stranded RNA-activated protein kinase (EIF2AK2, Homo sapiens, UniProt P19525)	competitive binding	PRKR		100
Serine/threonine-protein kinase VRK2 (VRK2, Homo sapiens, UniProt Q86Y07)	competitive binding panel		vehicle	93
Proto-oncogene tyrosine-protein kinase Src (SRC, Homo sapiens, UniProt P12931)	competitive binding panel		vehicle	100

Set 4
Cell line: A-375
Concentration: 100 µM
Time: 18 h
Structure (SMILES)	viability
Cn1c(=O)c2[nH]cnc2n(C)c1=O	104% and 91.7% and 100%
CO[C@H]1/C=C/O[C@@]2(C)Oc3c(C)c(O)c4c(O)c(c(/C=N/N5CCN(C)CC5)c(O)c4c3C2=O)NC(=O)/C(C)=C\C=C\[C@H](C)[C@H](O)[C@@H](C)[C@@H](O)[C@@H](C)[C@H](OC(C)=O)[C@@H]1C	101%
CN(C)CCN(Cc1ccc(Cl)cc1)c1ccccn1	48.3%
CCOC(=O)C(C)(C)Oc1ccc(Cl)cc1	50.5%
C=C1c2cccc(O)c2C(=O)C2=C(O)[C@]3(O)C(=O)C(C(N)=O)=C(O)[C@@H](N(C)C)[C@@H]3[C@@H](O)[C@H]12	110%
O=C(O[C@H]1C[N+]2(CCCOc3ccccc3)CCC1CC2)C(O)(c1cccs1)c1cccs1	99.2%
O=C(c1ccc(F)c(F)c1Nc1ccc(I)cc1F)N1CC(O)([C@@H]2CCCCN2)C1	8.46%
C[C@H]1C[C@@H]2[C@H]([C@@H](O)C[C@@]3(C)[C@H]2CC[C@]3(O)C(=O)CO)[C@@]2(C)C=CC(=O)C=C12	100%
O=C1CCCC(=O)C1C(=O)c1ccc(C(F)(F)F)cc1[N+](=O)[O-]	102%
CO[C@H]1C[C@H](O[C@H]2[C@H](C)O[C@@H](O[C@@H]3/C(C)=C/C[C@@H]4C[C@@H](C[C@]5(C=C[C@H](C)[C@@H](C6CCCCC6)O5)O4)OC(=O)[C@@H]4C=C(C)[C@@H](O)[C@H]5OC/C(=C\C=C\[C@@H]3C)[C@]54O)C[C@@H]2OC)O[C@@H](C)[C@@H]1O	40.7%
